Results pooled from the literature.
Parts stem from different laboratories: compare values within a part only. Substitutions count along the parent as printed.

Series 1
Target: Centromere-binding protein 1, full length, N-terminal tag (CBF1, Saccharomyces cerevisiae, UniProt P17106, residues 1-351)
UniProt P17106, sequence (whole entry, looked up): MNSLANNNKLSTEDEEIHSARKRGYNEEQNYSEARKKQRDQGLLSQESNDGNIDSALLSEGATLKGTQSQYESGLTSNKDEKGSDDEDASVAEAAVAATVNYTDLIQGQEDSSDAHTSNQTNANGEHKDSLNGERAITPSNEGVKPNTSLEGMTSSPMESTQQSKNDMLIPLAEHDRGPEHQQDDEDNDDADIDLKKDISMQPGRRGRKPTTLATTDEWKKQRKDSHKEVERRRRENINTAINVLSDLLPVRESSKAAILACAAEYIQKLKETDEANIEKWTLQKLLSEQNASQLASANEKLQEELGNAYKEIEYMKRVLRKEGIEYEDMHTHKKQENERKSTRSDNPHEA
Technique: protein-binding microarray
Molecule type: double-stranded DNA, one strand shown
Medium: in vitro
Tested at: 0.8 µM
Notes: whole 60-bp probe, no competitor
Reading: higher = stronger binding
All sequences stand within: … GTCTTGATTCGCTTGACGCTGCTG
Strand	fluorescence intensity [a.u.]
CCTAACTACTATAATTATCACATATAGCTTCGTACA	540
CTAGTGAACAATGATCACATTAATGAATCAACCTTC	530
GAATCATATAATCCTTCTGATGTACGGATGTTTTAG	495
GAAACAAAAACAAATTACATCAGGAACCTTATTTAG	529
CTACAAGTTTCGGGTCACCCCACACGTATTTGGTTC	644
GAAGTAATTTGAAGTCATCACGTTTGCCCACATTAG	774
CTAATTTTCGAGGGTCACGTCGTGACTCATATGTTC	1670
TGTACGAAGCTATATCTCGTGATTATAGTAGTTAGG	1490
GAAACGTAATGGAAATTCACCTGCTTTGAATCGTAG	524
GAATGCTTGTGTTTACACGTTCGCGGTCAATGCTAG	553
CTACTGCCACCATACCACGTGTGTCCCTCGCAATTC	3020
CTAGGGTTGTTTGATCACATTATTTTAATTTTTTTC	992
CTATTTCATGATAATCATATGAGCATGTTTAATTTC	571
CTATACCGTTCACGCCACCTGACATTATACCACTTC	1650
GAATAGCGAGAATATGGTGTGAACAGTAGCACTTAG	515
GAAATAGTGAAAACCAACGTGAAGAAGCAAAAGTAG	557
CTAGCACGCTGCAGTTGCATCAGGGTTGTTTTATTC	504
GAACATAAGCGCTAAGGCGTGATAACTCAACTTTAG	588
CCTAACTACTATATCACGTGTAAATAGCTTCGTACA	8260

Series 2
Target: CCNE2, cyclin fold, Cln2 fusion (human)
Technique: yeast growth competition, sequencing
Medium: yeast
Notes: strong parent motif
Reference: not given
Reading: higher = stronger binding
Parent: E2F1 docking peptide (human); PPVKRRLDFETDH; partner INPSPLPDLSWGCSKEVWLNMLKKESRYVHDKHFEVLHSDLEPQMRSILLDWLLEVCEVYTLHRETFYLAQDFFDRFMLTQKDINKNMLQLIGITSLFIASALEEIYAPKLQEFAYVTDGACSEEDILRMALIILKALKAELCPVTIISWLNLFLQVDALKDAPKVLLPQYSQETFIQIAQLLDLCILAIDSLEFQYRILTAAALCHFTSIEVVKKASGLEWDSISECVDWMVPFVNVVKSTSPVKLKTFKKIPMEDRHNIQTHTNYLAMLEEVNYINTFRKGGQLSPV
Change	normalised enrichment score
PPSKRRLDFETDH [V3S]	1.44
PPAKRRLDFETDH [V3A]	4.43
PPVKWRLDFETDH [R5W]	0.0882
PQVKRRLDFETDH [P2Q]	5.22
PPRKRRLDFETDH [V3R]	0.415
PPVKTRLDFETDH [R5T]	0.211
PPVKRRLDFERDH [T11R]	5.76
PFVKRRLDFETDH [P2F]	4.17
PPVKRRLDFETAH [D12A]	6.29
PPVKRRLIFETDH [D8I]	5.09
PPVKRRLVFETDH [D8V]	5.21
PIVKRRLDFETDH [P2I]	4.15
PPVKRRQDFETDH [L7Q]	-0.239
PPVKRRLCFETDH [D8C]	6.09
PPWKRRLDFETDH [V3W]	4.76
PPVKRQLDFETDH [R6Q]	4.53
PPVKRRADFETDH [L7A]	0.143
PPMKRRLDFETDH [V3M]	1.53
PPVKRRLDFETKH [D12K]	6.32

Series 3
Target: Hepatocyte nuclear factor 3-alpha (Foxa1, Mus musculus, UniProt P35582, residues 1-468, full length assumed)
Technique: EMSA with sequencing
Molecule type: double-stranded DNA, one strand shown
Medium: in vitro
Tested at: 10 and 20 nM
Notes: whole designed probe, mean of two concentrations, ends assumed
Reference: negative control set to 0
Reading: higher = stronger binding
Construct (chain): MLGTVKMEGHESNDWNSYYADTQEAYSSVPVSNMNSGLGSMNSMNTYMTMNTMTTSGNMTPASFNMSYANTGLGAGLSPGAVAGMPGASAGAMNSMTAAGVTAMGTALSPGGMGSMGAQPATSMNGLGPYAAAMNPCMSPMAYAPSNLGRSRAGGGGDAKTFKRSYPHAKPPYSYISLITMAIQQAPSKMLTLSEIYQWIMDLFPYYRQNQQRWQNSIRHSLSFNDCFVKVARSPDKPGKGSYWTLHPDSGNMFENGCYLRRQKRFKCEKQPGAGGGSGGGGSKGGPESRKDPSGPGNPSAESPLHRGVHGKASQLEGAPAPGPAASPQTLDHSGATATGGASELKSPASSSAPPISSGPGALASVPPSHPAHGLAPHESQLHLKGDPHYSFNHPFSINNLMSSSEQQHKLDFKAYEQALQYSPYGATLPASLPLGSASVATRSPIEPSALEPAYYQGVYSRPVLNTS
Strand	normalised bound fraction [ratio]
GTGAGCGGTGCCCATTGATGGGGAACATCTTCCCCCTCTTCCTTGCCCCACCAGCTCACCTTCCCGGGTTGTTTACTTTGAGTATTTATTTTCAAGCCGGCATTCGTTAACCCTCTTCTGGCGCAAACTGCTGTTTACTTTGGATGAATCATGGTCCTTTGGCGACGCCAGGCTCCGGGAGAGCAAAGCACCGTGTCAGGGCCATGATCCGGGGTGGCCTTTCACTGGGATCGTGGGGAC	0.454
GTGAGCGGTGCCCATTGATGGGGAACATCTTCCCCCTCTTCCTTGCCCCACCAGCTCACCTTCCCGGGTTATTTGCAGATAGGAAAATAAATAAAGCCGGCATTCGTTAACCCTCTTCACGCGCATACTGCTGTTTACTTTGGATCTAACATGGTCCTTTGGCGACGCCAGGCTCCGGGAGAGCAAAGCACCGTGTCAGGGCCATGATCCGGGGTGGCCTTTCACTGGGATCGTGGGGAC	0.428
GTGAGCGGTGCCCATTGATGGGGAACACTACCATAGTTCCTATATACATATATGCCTCTTTCCCAATGCAAGTATGATATACTTTTATTTTGTTATTTGGTTTTCTATCTTTGATTTACATGTTTACACTGACATTTTTTAAGACTCTATTTGCTTAAGGTACAAAAAAATGTATTATTTACTGCAATCTCAACTATTAAAGCTAAAGCATTTCGAAAGTTTCACTGGGATCGTGGGGAC	0.413
GTGAGCGGTGCCCATTGATGGGGAACGCCTAGTGCACATCCCAGCCCTGCCTCCTGCCCCGCCTGCACGCCATGAGTGCTGAAGTCATGCCTGGCAGGGGCTGCTGGCCCAGGCCCAGAGTAAACACACTGCGCTGAGCTCGCTGGTGTGCTGCTGGATGCTGATGAGCTTGAGGAGTGTGGGAAGTGAGCATGGGGCTGAGTAGAGATGCGGCAGGCCTTTCACTGGGATCGTGGGGAC	0.248

Series 4
Target: RNA binding protein fox-1 homolog 2, RRM domain, GST-SBP tag (RBFOX2, Homo sapiens, UniProt O43251-10, residues 100-194)
Technique: RNA Bind-n-Seq
Molecule type: RNA
Medium: in vitro
Tested at: 365 nM
Notes: natural RNA segment, single round, ends assumed
Reference: no-protein control
Reading: higher = stronger binding
All sequences stand within: GGGAGUUCUACAGUCCGACGAUC … UGGAAUUCUCGGGUGCCAA
Construct (chain): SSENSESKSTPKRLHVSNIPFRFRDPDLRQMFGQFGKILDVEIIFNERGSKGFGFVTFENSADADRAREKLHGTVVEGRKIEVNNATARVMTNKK
Strand	RBNS enrichment (R)
GUUAACCUUUUUGUAAAUACUGCUUGACCGUACUCUCACAUGUGGCAAAAUAUGGUUUGGUUUUUCUUUUUUUUUUUUUUUGAAAGUGUUUUUUCUUCGUCCUUUUGGUU	0.876
GAGGAGUCACUGUUCCUUUUUUUAGGUUAGAAAUUAACAGCAGGGAAAUGCCAUCUUAUUACCUGAGACGACCAGCACUGGGAGUUAGGUACGGUCUGAAGUUAUGUCUA	0.471
AAAUGUAUAUAACAUUAAUAAUGUCGCGUAGGUGUAGGUUCCUGGAUGCAUUUGGAUGUACAGACUGACUGGGGGACUGUAUUGCGAUGAUGAUUGGUGUAGAAACGUAU	1.91
CAGGCUGGCCACAGGCAGUGGGCAGCUCACUUGCUGCAGUGUCAUAGCAAUAAAAUGUGAUUCUUGGGGUCUGCCCAGAGCUGCCCAUGGCUUUAUUUAUGAGUGUGGCU	0.628
UGUGUCCUUUAUUGUAGCAUUGCUGUCUGCAAGGGAGCCCCUAGCCCCUGGCAGACAUAGCUGCUUCAGUGCCCCUUUUCUCUCUGCUAGAUGGAUGUUGAUGCACUGGA	0.363
AGUGGAGAAGGGCAGCCAAGUUUGGGGAGGGAGGGUGGUUAUGGAAAAACAGAACCAGCAUACCCCCAGGACCCAGCUGUGCUGGGAGCCUCAGUGUCCUCACCUGUCAA	0.376
UUGUAUAUGUUUCCUGGAUGUCCUUGACGGGUACAAACACUGAUGUGGUGGUAGCCAUCCCACAUGGUGUCCAGAGGAAAGCUACGCGCAUUUAUACUGUCUGUUCUGUA	0.484
CUCCAAAGAUAUUUGCACUGCUUUUAAUUAUUGCUGUGUAUCUAUUUCUUUGGGUAUUAUAACUGUGGUAAUAGAAACUUGAUUUAAUGGUCUGUACCAAGUCCCUAUUC	0.485
UUUAUGGAUAGAGGAAAAGCUGGUGGAGAAUAGAAGGACGAAAUAUUCUAGAAGAUGGGUCAGGGUGCAGGAAGUCACAUGCCCUCAAGAAGUAUGAGAGUUGGGCUAUG	1.87
AGAAACUUUGAAUUUUUAAGAAAGGCUUCUAACUAAUUGCUUUAAUCUAUCUAUAGACUGUAGUAAGAUGCAAUGUGGCUCUUUUCUUUUAGGUUGUGUGCAGUUGAUAU	0.579
CAUGUGCAAUAAGACUGGUGUUCGUUUCCAUCAUGUCUGUAUACUUCUGUCAUCUAGACUGUGCAUCCCUGUAAUACCUGACUGAUCACAGUGUUAGUGCUGGUCAGAGA	0.358
AUAGAUAUAAAGUAAAAUUAUGUUAUUAAUUUGGUUUAGUCUGUAAUAUUACACAGUAAUGGUAAUUUAUAAAGGAGUGUAUAGUAGUAUACUGACUGCUAAGUGUACUA	0.766
